Experimental data collected from several papers.
Each line is one published result; not all experiments were run side by side. Values joined by “and” are separate records of one study, mostly repeats; a detail may differ. ± marks the error that the study gave.
Cell line: HeLa

With `C[C@@H](N)[C@H](O)CCCCCCCC(=O)CCCCCCCCCCCCCC[C@@H](O[C@@H]1O[C@H](CO)[C@@H](O)[C@H](O)[C@H]1O)[C@@H](N)CO` the growth inhibition was 92 ± 3.08% (cytotoxicity; concentration not given).
The inhibition of `CC(C)=CCc1c(O)cc2c(c1O)C(=O)CC(c1ccc(O)cc1)O2` (stereo not drawn) is reported as 49% (cell growth or viability, MTT; 25 µM, 48 h).
The IC50 of `c1cnc2c(c1)c1nccnc1c1cccnc12` is reported as > 50 µM (cell growth or viability, MTT; 48 h).
For `CNC(=S)NCCCC[C@H](NC(=O)CCc1ccccc1)C(=O)N[C@@H](CCCNC(=N)N)C(=O)N[C@@H](CC1CCCCC1)C(=O)N[C@H](CCCCN)C(=O)N[C@@H](CC1CCCCC1)C(=O)N[C@H](CCCNC(=N)N)C(=O)N[C@@H](CC1CCCCC1)C(N)=O`, the EC50 was 14.1 µM (cell growth or viability, MTT; 72 h).
With `CSc1cc(C)[nH]c(=O)c1CNC(=O)c1c(C)n([C@H](C)C2CCN(CC(F)(F)F)CC2)c2ccccc12` the EC50 was 0.0025 µM (histone methylation reduction, AlphaLISA, item: H3K27me3; 72 h).
The IC50 of `NC(=O)c1cccc2c3c([nH]c12)CCC(N)C3` (stereo not drawn) is reported as 0.15 µM (cell growth or viability).
`CC(N)C(O)CCCCCCCCCCCCCCC(=O)CCCCCCCC(O)C(C)N` (stereo not drawn) has an IC50 of > 50 µM (cell growth or viability).
For `C#CCCCC[C@H](C)C[C@@H](C)C(=O)N(C)[C@@H](C)C(=O)N1CCC[C@H]1C(=O)N(C)[C@H](C(=O)N(C)[C@H](C(=O)OC)C(C)C)C(C)C`, the IC50 was 3.47 µM and 2.8 µM and 3.14 µM (cell growth or viability, SRB).
With `COCCOCCOCCOCCOCCOCCOCCOCCC(=O)N1CCC[C@H]1C(=O)N[C@@H](CC(C)C)C(=O)N[C@@H](Cc1cncn1CCCCCCCCc1ccccc1)C(=O)N[C@@H](CO)C(=O)N[C@H](C(N)=O)[C@@H](C)CP(=O)(O)O` the IC50 was ~380 µM (cell proliferation; 24 h, thymidine-block synchronised).
`C#CCCCC[C@H](C)C[C@@H](C)C(=O)N(C)[C@H](C(=O)N(C)[C@@H](Cc1ccccc1)C(=O)N1CCC[C@H]1C(=O)N1CCC[C@H]1C(C)=O)C(C)C` has an IC50 of 3.12 µM and 3.02 µM and 3.22 µM (cell growth or viability, SRB).
The GI50 of `Cc1cc(=O)oc2cc(OCCCCCC[Se]C#N)ccc12` is reported as 3 µM (cell growth or viability, SRB).
With `Cc1ccc2c(Br)cc(Br)c([O-])c2n1.Cc1ccc2c(Br)cc(Br)c([O-])c2n1.[Co+2].c1cnc2c(c1)c1nccnc1c1cccnc12` the IC50 was 5.28 µM (cell growth or viability, MTT; 48 h).
With `CC[C@H](C)[C@@H]([C@@H](CC(=O)N1CCC[C@H]1[C@H](OC)[C@@H](C)C(=O)N[C@H](C)[C@@H](O)c1ccccc1)OC)N(C)C(=O)[C@@H](NC(=O)[C@@H](NC)C(C)C)C(C)C` the IC50 was 0.0011 µM (cell proliferation, MTT; with transthyretin).
The nuclear concentration of `N=C(N)NCCC[C@H](NC(=O)[C@H](CCCNC(=N)N)NC(=O)[C@H](CCCNC(=N)N)NC(=O)[C@H](CCC(N)=O)NC(=O)[C@H](CCCNC(=N)N)NC(=O)[C@H](CCCNC(=N)N)NC(=O)[C@H](CCCCN)NC(=O)[C@H](CCCCN)NC(=O)[C@H](CCCNC(=N)N)NC(=O)[C@H](Cc1c[nH]c2ccccc12)NC(=O)[C@H](Cc1c[nH]c2ccccc12)NC(=O)[C@@H](N)CSSC[C@H](N)C(=O)N[C@@H](Cc1c[nH]c2ccccc12)C(=O)N[C@@H](Cc1c[nH]c2ccccc12)C(=O)N[C@@H](CCCNC(=N)N)C(=O)N[C@@H](CCCCN)C(=O)N[C@@H](CCCCN)C(=O)N[C@@H](CCCNC(=N)N)C(=O)N[C@@H](CCCNC(=N)N)C(=O)N[C@@H](CCC(N)=O)C(=O)N[C@@H](CCCNC(=N)N)C(=O)N[C@@H](CCCNC(=N)N)C(=O)N[C@@H](CCCNC(=N)N)C(=O)NCC(N)=O)C(=O)NCC(N)=O` is reported as 3 to 10 µM (protein delivery, fluorescence microscopy, item: AF488-H1; 2.5 µM, 1 h, together with: AF488-H1 0.75 µM).
`COC(=O)[C@H](C(C)C)N(C)C(=O)[C@H](C(C)C)N(C)C(=O)[C@@H]1CCCN1C(=O)[C@H](C)N(C)C(=O)OC(C)(C)C` gave an IC50 of 24.6 µM and 20.8 µM and 23.3 µM (cell growth or viability, SRB).

Excerpt of the above:
The nuclear concentration of `N=C(N)NCCC[C@H](NC(=O)[C@H](CCCNC(=N)N)NC(=O)[C@H](CCCNC(=N)N)NC(=O)[C@H](CCC(N)=O)NC(=O)[C@H](CCCNC(=N)N)NC(=O)[C@H](CCCNC(=N)N)NC(=O)[C@H](CCCCN)NC(=O)[C@H](CCCCN)NC(=O)[C@H](CCCNC(=N)N)NC(=O)[C@H](Cc1c[nH]c2ccccc12)NC(=O)[C@H](Cc1c[nH]c2ccccc12)NC(=O)[C@@H](N)CSSC[C@H](N)C(=O)N[C@@H](Cc1c[nH]c2ccccc12)C(=O)N[C@@H](Cc1c[nH]c2ccccc12)C(=O)N[C@@H](CCCNC(=N)N)C(=O)N[C@@H](CCCCN)C(=O)N[C@@H](CCCCN)C(=O)N[C@@H](CCCNC(=N)N)C(=O)N[C@@H](CCCNC(=N)N)C(=O)N[C@@H](CCC(N)=O)C(=O)N[C@@H](CCCNC(=N)N)C(=O)N[C@@H](CCCNC(=N)N)C(=O)N[C@@H](CCCNC(=N)N)C(=O)NCC(N)=O)C(=O)NCC(N)=O` is reported as 3 to 10 µM (protein delivery, fluorescence microscopy, item: AF488-H1; 2.5 µM, 1 h, together with: AF488-H1 0.75 µM).
